{"data": "Results pooled from the literature", "note": "Every numbered part comes from another study and shows a few of its results, in no order. “And” joins repeats or separate records; there may be more than shown.", "sequence of UniProt O14965 (whole entry, looked up)": "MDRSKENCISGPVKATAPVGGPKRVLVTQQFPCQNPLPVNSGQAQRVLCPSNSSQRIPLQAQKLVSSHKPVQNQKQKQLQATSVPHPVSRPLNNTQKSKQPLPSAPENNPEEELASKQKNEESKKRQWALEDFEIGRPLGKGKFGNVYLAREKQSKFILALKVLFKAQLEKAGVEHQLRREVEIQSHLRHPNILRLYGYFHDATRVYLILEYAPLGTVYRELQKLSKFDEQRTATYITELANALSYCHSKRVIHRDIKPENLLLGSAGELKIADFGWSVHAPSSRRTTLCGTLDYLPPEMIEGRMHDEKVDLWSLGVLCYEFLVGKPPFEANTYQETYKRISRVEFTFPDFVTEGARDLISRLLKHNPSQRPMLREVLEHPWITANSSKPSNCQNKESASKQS", "sequence of UniProt P29323 (whole entry, looked up)": "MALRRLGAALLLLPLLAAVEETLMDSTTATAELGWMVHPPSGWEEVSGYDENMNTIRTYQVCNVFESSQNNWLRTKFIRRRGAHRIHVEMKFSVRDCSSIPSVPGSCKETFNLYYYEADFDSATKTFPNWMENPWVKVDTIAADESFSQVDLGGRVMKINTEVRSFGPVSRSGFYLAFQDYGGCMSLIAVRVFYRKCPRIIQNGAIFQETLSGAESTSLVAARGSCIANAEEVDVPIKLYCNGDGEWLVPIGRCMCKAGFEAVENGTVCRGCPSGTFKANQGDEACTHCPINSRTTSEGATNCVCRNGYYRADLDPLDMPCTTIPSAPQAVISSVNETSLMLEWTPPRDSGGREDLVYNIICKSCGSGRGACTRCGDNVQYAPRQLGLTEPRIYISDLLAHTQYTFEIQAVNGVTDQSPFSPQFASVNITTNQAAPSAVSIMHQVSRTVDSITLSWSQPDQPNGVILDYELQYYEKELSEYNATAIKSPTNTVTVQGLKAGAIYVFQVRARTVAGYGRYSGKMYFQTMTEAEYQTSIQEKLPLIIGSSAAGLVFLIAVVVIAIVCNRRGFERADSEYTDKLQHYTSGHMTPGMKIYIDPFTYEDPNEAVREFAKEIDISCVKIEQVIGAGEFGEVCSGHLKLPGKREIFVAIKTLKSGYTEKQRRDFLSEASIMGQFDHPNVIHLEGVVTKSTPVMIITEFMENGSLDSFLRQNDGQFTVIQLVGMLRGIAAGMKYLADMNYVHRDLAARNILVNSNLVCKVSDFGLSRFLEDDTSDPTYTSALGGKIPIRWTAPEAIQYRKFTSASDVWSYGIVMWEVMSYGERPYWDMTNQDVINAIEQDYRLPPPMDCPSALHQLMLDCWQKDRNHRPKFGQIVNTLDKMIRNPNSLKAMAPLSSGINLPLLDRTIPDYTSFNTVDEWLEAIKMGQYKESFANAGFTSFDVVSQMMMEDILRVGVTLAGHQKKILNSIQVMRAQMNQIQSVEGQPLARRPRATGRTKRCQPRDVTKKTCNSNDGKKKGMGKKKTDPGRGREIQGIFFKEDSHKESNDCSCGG", "sequence of UniProt Q15303 (whole entry, looked up)": "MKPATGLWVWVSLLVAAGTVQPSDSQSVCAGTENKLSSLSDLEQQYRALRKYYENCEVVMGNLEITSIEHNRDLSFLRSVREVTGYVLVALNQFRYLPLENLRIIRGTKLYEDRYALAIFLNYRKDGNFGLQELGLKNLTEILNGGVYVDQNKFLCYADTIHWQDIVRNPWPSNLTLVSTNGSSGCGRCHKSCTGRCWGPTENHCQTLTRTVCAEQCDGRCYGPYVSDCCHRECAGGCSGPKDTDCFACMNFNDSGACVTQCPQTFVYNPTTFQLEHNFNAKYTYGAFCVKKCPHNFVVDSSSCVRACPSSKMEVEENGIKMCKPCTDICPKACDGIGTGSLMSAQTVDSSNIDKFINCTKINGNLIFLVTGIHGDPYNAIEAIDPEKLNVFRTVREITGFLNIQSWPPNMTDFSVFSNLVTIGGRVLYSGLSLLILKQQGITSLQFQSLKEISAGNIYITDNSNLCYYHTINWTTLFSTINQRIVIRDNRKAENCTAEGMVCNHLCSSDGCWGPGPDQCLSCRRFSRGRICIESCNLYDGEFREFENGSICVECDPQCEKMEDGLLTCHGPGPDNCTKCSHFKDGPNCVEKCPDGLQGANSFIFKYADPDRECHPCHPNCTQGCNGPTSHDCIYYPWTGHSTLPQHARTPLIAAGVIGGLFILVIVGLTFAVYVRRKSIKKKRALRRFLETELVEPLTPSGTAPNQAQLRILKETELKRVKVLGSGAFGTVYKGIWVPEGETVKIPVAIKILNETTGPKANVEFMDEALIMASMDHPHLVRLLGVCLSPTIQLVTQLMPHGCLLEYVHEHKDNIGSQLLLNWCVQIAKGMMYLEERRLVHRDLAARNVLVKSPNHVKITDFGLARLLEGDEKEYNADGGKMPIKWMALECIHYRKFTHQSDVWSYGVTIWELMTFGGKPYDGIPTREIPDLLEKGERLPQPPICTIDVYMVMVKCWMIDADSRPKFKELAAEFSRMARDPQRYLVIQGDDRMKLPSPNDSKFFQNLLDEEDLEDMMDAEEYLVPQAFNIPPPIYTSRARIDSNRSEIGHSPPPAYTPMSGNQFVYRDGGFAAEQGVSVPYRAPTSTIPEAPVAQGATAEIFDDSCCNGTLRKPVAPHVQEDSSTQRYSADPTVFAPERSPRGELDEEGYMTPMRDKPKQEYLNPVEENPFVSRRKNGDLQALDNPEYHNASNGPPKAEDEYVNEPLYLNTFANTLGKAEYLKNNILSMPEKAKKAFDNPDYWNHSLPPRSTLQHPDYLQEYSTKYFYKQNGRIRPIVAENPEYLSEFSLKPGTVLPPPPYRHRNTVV", "sequence of UniProt Q13237 (whole entry, looked up)": "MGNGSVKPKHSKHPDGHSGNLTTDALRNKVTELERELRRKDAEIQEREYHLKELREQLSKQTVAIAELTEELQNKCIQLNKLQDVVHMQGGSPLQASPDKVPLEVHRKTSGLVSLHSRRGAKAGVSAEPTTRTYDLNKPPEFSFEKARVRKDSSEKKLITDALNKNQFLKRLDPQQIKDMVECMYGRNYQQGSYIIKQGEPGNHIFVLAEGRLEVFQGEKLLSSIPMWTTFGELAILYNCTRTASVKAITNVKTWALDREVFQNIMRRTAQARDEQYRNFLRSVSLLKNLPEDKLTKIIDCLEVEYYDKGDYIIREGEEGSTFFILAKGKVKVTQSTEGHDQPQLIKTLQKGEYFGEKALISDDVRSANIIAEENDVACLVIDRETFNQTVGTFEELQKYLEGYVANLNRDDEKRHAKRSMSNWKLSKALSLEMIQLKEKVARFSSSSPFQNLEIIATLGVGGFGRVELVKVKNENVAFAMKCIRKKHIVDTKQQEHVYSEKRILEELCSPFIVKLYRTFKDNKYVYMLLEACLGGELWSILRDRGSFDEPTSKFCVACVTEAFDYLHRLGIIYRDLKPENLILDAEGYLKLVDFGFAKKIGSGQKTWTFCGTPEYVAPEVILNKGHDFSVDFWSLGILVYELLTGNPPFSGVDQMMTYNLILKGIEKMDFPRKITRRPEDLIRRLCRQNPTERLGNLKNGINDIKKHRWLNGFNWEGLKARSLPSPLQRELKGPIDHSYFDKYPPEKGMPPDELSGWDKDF", "sequence of UniProt P57059 (whole entry, looked up)": "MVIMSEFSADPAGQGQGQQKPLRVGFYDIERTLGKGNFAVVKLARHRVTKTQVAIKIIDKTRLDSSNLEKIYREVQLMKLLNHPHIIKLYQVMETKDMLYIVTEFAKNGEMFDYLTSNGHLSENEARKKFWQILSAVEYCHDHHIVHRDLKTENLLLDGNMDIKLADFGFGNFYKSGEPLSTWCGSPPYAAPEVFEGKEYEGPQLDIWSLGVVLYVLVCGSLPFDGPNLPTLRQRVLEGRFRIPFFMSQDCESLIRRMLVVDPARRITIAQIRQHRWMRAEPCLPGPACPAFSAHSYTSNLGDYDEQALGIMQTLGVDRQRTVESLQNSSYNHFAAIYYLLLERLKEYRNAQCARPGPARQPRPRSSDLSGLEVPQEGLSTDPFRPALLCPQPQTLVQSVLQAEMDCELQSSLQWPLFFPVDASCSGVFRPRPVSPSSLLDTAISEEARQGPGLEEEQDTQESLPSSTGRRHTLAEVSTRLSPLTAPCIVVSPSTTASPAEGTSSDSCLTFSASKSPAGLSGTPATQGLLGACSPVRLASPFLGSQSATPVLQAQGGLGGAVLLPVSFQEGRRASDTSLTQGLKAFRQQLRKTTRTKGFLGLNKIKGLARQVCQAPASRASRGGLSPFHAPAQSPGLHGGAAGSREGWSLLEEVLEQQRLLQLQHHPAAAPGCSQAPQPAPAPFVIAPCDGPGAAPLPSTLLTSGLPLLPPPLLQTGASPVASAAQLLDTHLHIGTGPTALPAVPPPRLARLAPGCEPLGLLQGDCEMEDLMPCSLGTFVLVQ", "sequence of UniProt P78356 (whole entry, looked up)": "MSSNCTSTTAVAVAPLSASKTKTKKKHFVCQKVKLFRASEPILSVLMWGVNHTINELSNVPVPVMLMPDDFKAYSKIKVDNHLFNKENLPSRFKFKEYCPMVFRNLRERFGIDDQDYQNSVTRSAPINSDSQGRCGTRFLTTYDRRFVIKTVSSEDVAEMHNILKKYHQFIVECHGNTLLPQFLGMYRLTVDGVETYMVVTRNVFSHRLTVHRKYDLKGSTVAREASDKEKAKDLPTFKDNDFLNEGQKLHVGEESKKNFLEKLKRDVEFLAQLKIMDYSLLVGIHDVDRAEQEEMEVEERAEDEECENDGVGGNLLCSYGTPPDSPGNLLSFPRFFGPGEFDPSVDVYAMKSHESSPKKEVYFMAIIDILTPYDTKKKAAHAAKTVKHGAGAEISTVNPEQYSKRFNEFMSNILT"}
{"data": "Sample 1", "cell line": "A-375", "concentration": "100 µM", "time": "36 h"}
{"SMILES": "CCC(=O)NCC[C@@H]1CCc2ccc3c(c21)CCO3", "viability": "82.8%"}
{"SMILES": "O=C(O)CCCCCCCC(=O)O", "viability": "104%"}
{"SMILES": "CC(C)(C)NCC(O)COc1cccc2c1C[C@H](O)[C@H](O)C2 (mixture of isomers)", "viability": "104%"}
{"SMILES": "Cc1cc(C(C)(C)C)c(O)c(C)c1CC1=NCCN1", "viability": "112%"}
{"SMILES": "CNCC(O)c1ccc(OC(=O)C(C)(C)C)c(OC(=O)C(C)(C)C)c1 (stereo not drawn)", "viability": "64.6%"}
{"SMILES": "CCOc1nc2cccc(C(=O)OC(C)OC(=O)OC3CCCCC3)c2n1Cc1ccc(-c2ccccc2-c2nnn[nH]2)cc1 (stereo not drawn)", "viability": "2.64%"}
{"SMILES": "N=C(N)c1ccc(OCCCCCOc2ccc(C(=N)N)cc2)cc1", "viability": "8.01%"}
{"SMILES": "C[C@@H](NCCCc1cccc(C(F)(F)F)c1)c1cccc2ccccc12", "viability": "-0.258%"}
{"SMILES": "C=CC[C@@H]1/C=C(\\C)C[C@H](C)C[C@H](OC)[C@H]2O[C@@](O)(C(=O)C(=O)N3CCCC[C@H]3C(=O)O[C@H](/C(C)=C/[C@@H]3CC[C@@H](O)[C@H](OC)C3)[C@H](C)[C@@H](O)CC1=O)[C@H](C)C[C@@H]2OC", "viability": "2.38%"}
{"SMILES": "COc1ccc(C(=O)NCc2ccc(OCCN(C)C)cc2)cc1OC", "viability": "76.7%"}
{"SMILES": "CCCCOc1cc(C(=O)OCCN(CC)CC)ccc1N", "viability": "57.7%"}
{"SMILES": "OC[C@H]1O[C@@H](Oc2ccc(O)cc2)[C@H](O)[C@@H](O)[C@@H]1O", "viability": "123%"}
{"data": "Sample 2", "SMILES": "CC(=O)N1CCC(c2ccc(C(=O)NC3=NCCN3)cc2C(F)(F)F)CC1", "concentration": "1 µM"}
{"target": "RET (Homo sapiens, UniProt P07949, M918T)", "read-out": "cell-free assay", "method": "competition with immobilised ligand", "remaining binding [%]": 90}
{"target": "MAP2K6 (Homo sapiens, UniProt P52564)", "read-out": "cell-free assay", "method": "competition with immobilised ligand", "remaining binding [%]": 100}
{"target": "KIT (Homo sapiens, UniProt P10721, D816H)", "read-out": "cell-free assay", "method": "competition with immobilised ligand", "remaining binding [%]": 97}
{"target": "Aurora kinase A (AURKA, Homo sapiens, UniProt O14965)", "read-out": "cell-free assay", "method": "competition with immobilised ligand", "remaining binding [%]": 100}
{"target": "LYN (Homo sapiens, UniProt P07948)", "read-out": "cell-free assay", "method": "competition with immobilised ligand", "remaining binding [%]": 94}
{"target": "ACVR2A (Homo sapiens, UniProt P27037)", "read-out": "cell-free assay", "method": "competition with immobilised ligand", "remaining binding [%]": 100}
{"target": "CAMK2B (Homo sapiens, UniProt Q13554)", "read-out": "cell-free assay", "method": "competition with immobilised ligand", "remaining binding [%]": 88}
{"target": "DCLK2 (Homo sapiens, UniProt Q8N568)", "read-out": "cell-free assay", "method": "competition with immobilised ligand", "remaining binding [%]": 88}
{"target": "FLT3 (Homo sapiens, UniProt P36888, K663Q)", "read-out": "cell-free assay", "method": "competition with immobilised ligand", "remaining binding [%]": 100}
{"target": "SIK1 (Homo sapiens, UniProt P57059)", "method": "competition binding", "remaining binding [%]": 100}
{"target": "DDR2 (Homo sapiens, UniProt Q16832)", "read-out": "cell-free assay", "method": "competition with immobilised ligand", "remaining binding [%]": 96}
{"target": "ERBB4 (Homo sapiens, UniProt Q15303)", "read-out": "cell-free assay", "method": "competition with immobilised ligand", "remaining binding [%]": 100}
{"target": "FLT3 (Homo sapiens, UniProt P36888)", "read-out": "cell-free assay", "method": "competition with immobilised ligand", "remaining binding [%]": 100}
{"target": "PIP4K2B (Homo sapiens, UniProt P78356)", "read-out": "cell-free assay", "method": "competition with immobilised ligand", "remaining binding [%]": 75}
{"target": "Ribosomal protein S6 kinase alpha-3, C-terminal kinase domain (RPS6KA3, Homo sapiens, UniProt P51812)", "read-out": "cell-free assay", "method": "competition with immobilised ligand", "remaining binding [%]": 99}
{"target": "NEK6 (Homo sapiens, UniProt Q9HC98)", "read-out": "cell-free assay", "method": "competition with immobilised ligand", "remaining binding [%]": 100}
{"target": "FLT1 (Homo sapiens, UniProt P17948)", "read-out": "cell-free assay", "method": "competition with immobilised ligand", "remaining binding [%]": 100}
{"target": "PIK3C3 (Homo sapiens, UniProt Q8NEB9)", "read-out": "cell-free assay", "method": "competition with immobilised ligand", "remaining binding [%]": 88}
{"target": "STK39 (Homo sapiens, UniProt Q9UEW8)", "read-out": "cell-free assay", "method": "competition with immobilised ligand", "remaining binding [%]": 100}
{"target": "PRKG2 (Homo sapiens, UniProt Q13237)", "read-out": "cell-free assay", "method": "competition with immobilised ligand", "remaining binding [%]": 100}
{"target": "EGFR (Homo sapiens, UniProt P00533, L858R/T790M)", "read-out": "cell-free assay", "method": "competition with immobilised ligand", "remaining binding [%]": 100}
{"target": "EPHB2 (Homo sapiens, UniProt P29323)", "read-out": "cell-free assay", "method": "competition with immobilised ligand", "remaining binding [%]": 82}
{"target": "EGFR (Homo sapiens, UniProt P00533, A750P/del747-749)", "read-out": "cell-free assay", "method": "competition with immobilised ligand", "remaining binding [%]": 89}
{"target": "CAMKK2 (Homo sapiens, UniProt Q96RR4)", "read-out": "cell-free assay", "method": "competition with immobilised ligand", "remaining binding [%]": 100}
{"target": "WEE2 (Homo sapiens, UniProt P0C1S8)", "read-out": "cell-free assay", "method": "competition with immobilised ligand", "remaining binding [%]": 100}
{"data": "Sample 3", "cell line": "mouse MPNST tumor cells", "method": "high-content immunofluorescence imaging", "measured": "nuclear SOX9", "concentration": "10 µM", "time": "12 h", "setting": "mean of 2 replicates", "baseline": "DMSO control", "reading": "higher = more nuclear SOX9"}
{"Structure (SMILES)": "Cc1ccc(-c2n[nH]c3c2C(c2cccc(O)c2)N(c2ccc(C(=O)O)cc2)C3=O)cc1 (stereo not drawn)", "nuclear SOX9 intensity": "99.4 % of DMSO"}
{"Structure (SMILES)": "Nc1cc(F)ccc1NC(=O)/C=C/c1cnn(C/C=C/c2ccccc2)c1", "nuclear SOX9 intensity": "125 % of DMSO"}
{"Structure (SMILES)": "Nc1nc(NCc2ccccc2)nc(-c2ccccc2CO)n1", "nuclear SOX9 intensity": "107 % of DMSO"}
{"Structure (SMILES)": "CC(C)Cn1cnc2c(N)nc3ccccc3c21", "nuclear SOX9 intensity": "110 % of DMSO"}
{"Structure (SMILES)": "CCCCNc1c(C(=O)OCC)c(C)nc2c1cnn2CC", "nuclear SOX9 intensity": "103 % of DMSO"}
{"Structure (SMILES)": "CN1CC2c3ccccc3Oc3ccc(Cl)cc3C2C1 (stereo not drawn)", "nuclear SOX9 intensity": "126 % of DMSO and 184 % of DMSO and 144 % of DMSO"}
{"Structure (SMILES)": "CCN(CC)C(=O)Nc1ccc(OCC(O)CNC(C)(C)C)c(C(C)=O)c1 (stereo not drawn)", "nuclear SOX9 intensity": "96 % of DMSO"}
{"Structure (SMILES)": "Cc1cccc(N2CCN(C(=O)c3cc(S(=O)(=O)N(C)C)ccc3N3CCCC3)CC2)c1C", "nuclear SOX9 intensity": "89.8 % of DMSO"}
{"Structure (SMILES)": "CCc1nc2c(c3cc(OC)c(OC)cc13)C(=O)NC2=O", "nuclear SOX9 intensity": "104 % of DMSO"}
{"Structure (SMILES)": "CC(C)(CO)n1cc(C(=O)c2cncc(NC(=O)Cc3ccc(Cl)cn3)c2)c2cnc(N)nc21", "nuclear SOX9 intensity": "101 % of DMSO"}
{"Structure (SMILES)": "CN(C)c1ccc(O)c2c1C[C@H]1C[C@H]3[C@H](N(C)C)C(=O)C(C(N)=O)=C(O)[C@@]3(O)C(=O)C1=C2O", "nuclear SOX9 intensity": "90.3 % of DMSO"}
{"Structure (SMILES)": "CS(=O)(=O)NCC1CCC(Nc2nc3c(s2)CCSc2ccccc2-3)CC1 (stereo not drawn)", "nuclear SOX9 intensity": "124 % of DMSO"}
{"Structure (SMILES)": "N=C(N)NS(=O)(=O)c1ccc(N)cc1", "nuclear SOX9 intensity": "99.5 % of DMSO"}
{"data": "Sample 4", "target": "Serine/threonine-protein kinase pim-1 (PIM1, Homo sapiens, UniProt P11309)", "read-out": "enzyme activity", "action": "inhibitor", "concentration": "0.5 µM", "baseline": "control", "sequence of UniProt P11309 (whole entry, looked up)": "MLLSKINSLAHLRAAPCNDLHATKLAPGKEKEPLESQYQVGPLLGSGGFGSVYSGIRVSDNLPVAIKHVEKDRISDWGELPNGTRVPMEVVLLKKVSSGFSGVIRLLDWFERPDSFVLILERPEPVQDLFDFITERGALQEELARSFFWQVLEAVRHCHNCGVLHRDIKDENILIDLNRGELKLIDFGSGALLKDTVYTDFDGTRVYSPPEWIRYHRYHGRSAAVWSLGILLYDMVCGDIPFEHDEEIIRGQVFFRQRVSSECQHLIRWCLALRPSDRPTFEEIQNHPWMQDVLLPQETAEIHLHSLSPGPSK"}
{"Structure (SMILES)": "Cc1ccc(NC2=CC(=O)c3sc(C)nc3C2=O)cc1", "remaining activity": "96.8%"}
{"Structure (SMILES)": "Oc1ccc(Nc2nc(-c3ccc(Cl)cc3)cs2)cc1", "remaining activity": "103%"}
{"Structure (SMILES)": "CC#CC(=O)Nc1cc2c(Nc3ccc(F)c(Cl)c3)ncnc2cn1", "remaining activity": "98.6%"}
{"Structure (SMILES)": "O=C1Cc2c([nH]c3ccc([N+](=O)[O-])cc23)-c2ccccc2N1", "remaining activity": "92%"}
{"Structure (SMILES)": "Cc1cc(Nc2nc(-c3ccccc3)nc3ccccc23)n[nH]1", "remaining activity": "83.3%"}
{"Structure (SMILES)": "CCCC(=O)Oc1ccc2[nH]c(C(=O)c3cc4ccccc4[nH]3)cc2c1", "remaining activity": "100%"}
{"Structure (SMILES)": "O=S(=O)(NCCNC/C=C/c1ccc(Br)cc1)c1cccc2cnccc12", "remaining activity": "90.1%"}
{"Structure (SMILES)": "Nc1nccc(-c2c(-c3ccc(F)cc3)ncn2C2CCNCC2)n1", "remaining activity": "97%"}
{"Structure (SMILES)": "CCc1[nH]c(-c2ccc(OC)cc2)nc1-c1ccncc1", "remaining activity": "104%"}
{"Structure (SMILES)": "CSc1nc(-c2ccnc(N[C@@H](C)c3ccccc3)c2)c(-c2ccc(F)cc2)[nH]1 (racemic)", "remaining activity": "91.8%"}
{"Structure (SMILES)": "COc1ccc(S(=O)(=O)N(CCO)c2ccccc2CN(C)CC=Cc2ccc(Cl)cc2)cc1", "remaining activity": "104%"}
{"Structure (SMILES)": "CC[n+]1c(/C=C/N(C)c2ccccc2)n(-c2ccccc2)c2ccc(-c3nc4ccccc4s3)cc21", "remaining activity": "102%"}
{"Structure (SMILES)": "Nc1nc(Nc2ccc(S(N)(=O)=O)cc2)nn1C(=O)c1c(F)cccc1F", "remaining activity": "97.6%"}
{"Structure (SMILES)": "CC(=O)c1ccc(N2CCOCC2)cc1O", "remaining activity": "97.2%"}
{"Structure (SMILES)": "Cc1cncc2cccc(S(=O)(=O)N3CCCN(C(=O)CN)C[C@@H]3C)c12", "remaining activity": "105%"}
{"Structure (SMILES)": "O=C1NC(=O)C(c2c[nH]c3ccccc23)=C1c1c[nH]c2ccccc12", "remaining activity": "17.2%"}
{"Structure (SMILES)": "CC(C)(C)n1nc(Cc2cccc3ccccc23)c2c(N)ncnc21", "remaining activity": "103%"}
{"Structure (SMILES)": "N#CC(=C(N)Sc1ccc(N)cc1)c1ccccc1C(F)(F)F", "remaining activity": "99.7%"}
{"Structure (SMILES)": "Fc1ccc(-c2nc3n(c2-c2ccncc2)CCS3)cc1", "remaining activity": "104%"}
